Measurements collected from several papers.
Each numbered part is a random draw from the data of one study; scales do not carry over between parts.

Sample 1
Target: Sal-like protein 4, full length isoform A (SALL4, Homo sapiens, UniProt Q9UJQ4, residues 1-1053)
Chain of UniProt Q9UJQ4 (whole entry, looked up): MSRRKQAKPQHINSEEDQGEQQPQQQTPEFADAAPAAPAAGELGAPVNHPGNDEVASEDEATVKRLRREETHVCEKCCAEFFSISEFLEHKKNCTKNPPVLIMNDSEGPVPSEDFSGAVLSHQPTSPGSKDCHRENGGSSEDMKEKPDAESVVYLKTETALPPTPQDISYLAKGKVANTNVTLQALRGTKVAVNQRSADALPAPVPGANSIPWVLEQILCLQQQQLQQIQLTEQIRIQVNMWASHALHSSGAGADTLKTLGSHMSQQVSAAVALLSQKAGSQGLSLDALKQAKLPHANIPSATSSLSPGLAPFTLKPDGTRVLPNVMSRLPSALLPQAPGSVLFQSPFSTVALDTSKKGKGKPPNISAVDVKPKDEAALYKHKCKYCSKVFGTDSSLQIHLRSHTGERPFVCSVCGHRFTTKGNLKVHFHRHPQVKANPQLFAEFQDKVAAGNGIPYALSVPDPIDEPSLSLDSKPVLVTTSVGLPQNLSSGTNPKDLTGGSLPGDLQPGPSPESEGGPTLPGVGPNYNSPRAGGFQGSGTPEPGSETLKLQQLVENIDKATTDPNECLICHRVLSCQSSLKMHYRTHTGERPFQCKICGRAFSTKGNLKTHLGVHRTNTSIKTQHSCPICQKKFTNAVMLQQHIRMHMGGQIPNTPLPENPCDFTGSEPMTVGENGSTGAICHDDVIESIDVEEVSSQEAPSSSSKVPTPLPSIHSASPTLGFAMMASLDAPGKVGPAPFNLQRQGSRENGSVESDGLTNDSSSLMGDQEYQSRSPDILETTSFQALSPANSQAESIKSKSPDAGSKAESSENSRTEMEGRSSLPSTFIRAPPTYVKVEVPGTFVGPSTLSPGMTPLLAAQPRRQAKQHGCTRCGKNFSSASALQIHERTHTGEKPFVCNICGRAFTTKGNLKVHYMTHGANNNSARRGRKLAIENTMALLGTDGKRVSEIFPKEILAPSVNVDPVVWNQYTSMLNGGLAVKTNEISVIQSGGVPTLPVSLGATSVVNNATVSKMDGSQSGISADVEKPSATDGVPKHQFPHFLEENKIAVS
Method: universal PBM
Form: double-stranded DNA, one strand shown
Matrix: in vitro
Concentration: 600 nM
Setting: 8-mer, flanks averaged, mean of replicates
Direction: higher = stronger binding
Endpoint: E-score
CGGGCCAA: -0.384
ACAGCGCC: -0.264
ATGTTCAA: 0.0992
ATGCGCGG: -0.286
TCTCCACA: 0.0614
CAGCCATA: -0.0138

Sample 2
Target: Fragile X messenger ribonucleoprotein 1, C-terminal low-complexity region (Fmr1, Mus musculus, UniProt P35922)
Method: RNA Bind-n-Seq
Form: RNA
Matrix: in vitro
Concentration: 200 nM
Setting: whole 134-nt RNA, ends assumed
Together with: 150 mM KCl
Baseline: input library
Direction: higher = stronger binding
Endpoint: log2 enrichment
Constant ends, left off below: GGGAGUUCUACAGUCCGACGAUC … UGGAAUUCUCGGGUGUCAAGG
CAAGUCCUGUGCUACACAUCGUAUGUACCGAAUCGGGUUUUGGUUUUGGUUUUGGAAAGUAUUAUGUUACGCCGUUCGGAUCUGCACUUC: -0.675
UUAAAGAAAUGUCCACAAGUAACUUUGAAUCAUCUCCUGAAGUAGAAGAAAGGCCUGCUGUGUCUUUGACUCUUGAUCAGAGCCAGUCAC: -0.773
ACUGAGGUACUGCCCUCCCCUGCCCCCUACCCUCUCCCUUGUCCCUCUACCCCGUUCCUCCCCUUCCCUCCAUUCCCUUUCCCCAACCUG: 0.527
UGGCCCUGGUGGCAUGCGGGGAGGAAGAGGUGGCCUCAUGGAUCGUGGUGGUCCCGGUGGAAUGUUCAGAGGUCGCCGUGGUGGAGACAG: -0.462
UCAAGUCCUGUGCUACACAUCGUAUGUACCGAAUCGGCCCGGGCCCGGGCCCGGAAAGUAUUAUGUUACGCCGUUCGGAUCUGCACUUCC: -1.15
UCCUGUGCUACACAUCGUAUGUACCGAAUCGGUUUUUGGGGUUUUUGGGGUUUUUGGGGAAAGUAUUAUGUUACGCCGUUCGGAUCUGCA: 0.253
CCUCAAGUCCUGUGCUACACAUCGUAUGUACCGAAUCGGCCGGGCCGGCCGGGAAAGUAUUAUGUUACGCCGUUCGGAUCUGCACUUCCA: -0.39

Sample 3
Target: Histone acetyltransferase KAT6A, winged helix 2, GST fusion (KAT6A, Homo sapiens, UniProt Q92794, residues 85-181)
Method: protein binding microarray
Form: double-stranded DNA, one strand shown
Matrix: in vitro
Concentration: not given
Setting: 8-mer, flanks averaged, mean of 2 arrays, mostly near background
Baseline: not given
Direction: higher = stronger binding
Endpoint: E-score
Target sequence (chain): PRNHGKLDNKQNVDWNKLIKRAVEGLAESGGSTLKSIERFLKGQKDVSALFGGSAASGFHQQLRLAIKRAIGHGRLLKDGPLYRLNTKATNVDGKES
GTTGAAAA: -0.0519
ACTAAAAT: 0.0866
ACTAGCGG: 0.00105
AAGCCCCG: -0.124
ACTTTCTC: 0.0245
GTAAAGTA: -0.206

Other studies, line by line
PhoQ, residues 284 288 289 292 302 303 SIHLQL
fold induction (PhoP, residues 12 14 15 18 19 SPWRL (Escherichia coli, UniProt P23836); Sort-seq, item: YFP reporter; E. coli; PhoQ-PhoP variant library, together with: 10 µM Mg2+; baseline: high Mg2+ state, higher = stronger signaling): 7.95

A few entries again (sample 1):
CGGGCCAA: -0.384
ACAGCGCC: -0.264
ATGTTCAA: 0.0992
